# Results pooled from the literature.
# Protocols differ between the studies behind these lines. Numbers after ± are the reported error.
# HCRTR1: Orexin/Hypocretin receptor type 1 (HCRTR1, Homo sapiens, UniProt O43613)
# Sequence of UniProt O43613 (whole entry, looked up): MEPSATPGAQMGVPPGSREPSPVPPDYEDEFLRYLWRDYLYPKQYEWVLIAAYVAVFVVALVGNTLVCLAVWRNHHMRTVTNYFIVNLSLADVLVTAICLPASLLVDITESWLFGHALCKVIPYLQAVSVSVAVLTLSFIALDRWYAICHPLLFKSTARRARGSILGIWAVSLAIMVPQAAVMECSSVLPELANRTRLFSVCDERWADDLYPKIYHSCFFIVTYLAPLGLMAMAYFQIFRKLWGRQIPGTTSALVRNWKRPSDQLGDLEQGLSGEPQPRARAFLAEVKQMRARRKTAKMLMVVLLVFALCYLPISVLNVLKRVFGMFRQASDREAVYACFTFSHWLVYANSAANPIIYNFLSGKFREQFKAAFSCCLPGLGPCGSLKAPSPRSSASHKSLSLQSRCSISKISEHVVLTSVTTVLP
# Drd3: D(3) dopamine receptor (Drd3, Rattus norvegicus, UniProt P19020)
# Sequence of UniProt P19020 (whole entry, looked up): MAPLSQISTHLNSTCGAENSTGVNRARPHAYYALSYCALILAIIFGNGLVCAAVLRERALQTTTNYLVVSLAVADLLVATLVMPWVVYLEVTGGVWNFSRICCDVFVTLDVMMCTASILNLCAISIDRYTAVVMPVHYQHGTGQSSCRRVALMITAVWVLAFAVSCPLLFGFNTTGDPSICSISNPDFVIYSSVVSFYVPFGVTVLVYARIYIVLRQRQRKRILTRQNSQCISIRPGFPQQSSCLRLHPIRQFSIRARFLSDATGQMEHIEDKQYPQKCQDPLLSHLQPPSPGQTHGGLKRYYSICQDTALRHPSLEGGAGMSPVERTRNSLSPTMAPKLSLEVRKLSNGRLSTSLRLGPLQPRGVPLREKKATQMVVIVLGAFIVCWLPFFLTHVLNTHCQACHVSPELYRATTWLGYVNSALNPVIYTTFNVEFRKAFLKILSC
# Sequence of UniProt Q8NET8 (whole entry, looked up): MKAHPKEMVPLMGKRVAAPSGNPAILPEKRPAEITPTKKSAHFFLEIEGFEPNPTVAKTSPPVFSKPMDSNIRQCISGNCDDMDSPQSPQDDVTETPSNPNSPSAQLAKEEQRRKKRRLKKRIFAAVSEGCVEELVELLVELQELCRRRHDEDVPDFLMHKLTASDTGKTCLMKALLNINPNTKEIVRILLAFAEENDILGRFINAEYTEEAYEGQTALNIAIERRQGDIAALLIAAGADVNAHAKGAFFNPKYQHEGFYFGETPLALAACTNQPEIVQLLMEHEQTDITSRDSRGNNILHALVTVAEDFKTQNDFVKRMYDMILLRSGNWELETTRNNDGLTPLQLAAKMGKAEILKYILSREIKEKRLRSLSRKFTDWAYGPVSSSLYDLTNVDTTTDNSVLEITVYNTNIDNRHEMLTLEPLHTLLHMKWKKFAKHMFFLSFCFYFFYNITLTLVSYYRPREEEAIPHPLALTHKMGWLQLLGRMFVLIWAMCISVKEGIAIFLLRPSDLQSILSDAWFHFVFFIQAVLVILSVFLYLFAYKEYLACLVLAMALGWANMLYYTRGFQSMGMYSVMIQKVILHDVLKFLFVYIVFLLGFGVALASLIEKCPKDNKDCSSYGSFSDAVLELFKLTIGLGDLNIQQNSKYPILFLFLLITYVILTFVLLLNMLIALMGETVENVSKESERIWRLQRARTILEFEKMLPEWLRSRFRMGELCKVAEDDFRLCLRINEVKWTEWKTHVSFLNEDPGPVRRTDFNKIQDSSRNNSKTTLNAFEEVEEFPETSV
# Sequence of UniProt Q62398 (whole entry, unmodified, looked up): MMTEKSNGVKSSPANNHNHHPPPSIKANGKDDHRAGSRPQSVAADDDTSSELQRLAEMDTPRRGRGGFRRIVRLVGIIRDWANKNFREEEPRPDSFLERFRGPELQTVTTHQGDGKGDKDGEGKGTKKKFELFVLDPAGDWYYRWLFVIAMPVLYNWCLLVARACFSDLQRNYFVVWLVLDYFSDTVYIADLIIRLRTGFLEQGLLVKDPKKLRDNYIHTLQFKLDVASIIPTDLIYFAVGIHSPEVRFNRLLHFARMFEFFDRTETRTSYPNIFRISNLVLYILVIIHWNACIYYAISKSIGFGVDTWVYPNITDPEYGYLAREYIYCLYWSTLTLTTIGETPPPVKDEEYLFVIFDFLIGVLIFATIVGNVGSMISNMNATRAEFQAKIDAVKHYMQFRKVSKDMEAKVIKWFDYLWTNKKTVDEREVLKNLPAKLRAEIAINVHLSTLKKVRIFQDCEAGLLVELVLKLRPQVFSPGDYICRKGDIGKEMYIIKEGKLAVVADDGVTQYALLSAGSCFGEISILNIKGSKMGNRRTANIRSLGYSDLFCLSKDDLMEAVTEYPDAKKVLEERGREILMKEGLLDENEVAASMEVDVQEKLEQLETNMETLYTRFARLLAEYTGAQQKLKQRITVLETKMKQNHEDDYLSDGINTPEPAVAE
# Sequence of UniProt O75469 (whole entry, looked up): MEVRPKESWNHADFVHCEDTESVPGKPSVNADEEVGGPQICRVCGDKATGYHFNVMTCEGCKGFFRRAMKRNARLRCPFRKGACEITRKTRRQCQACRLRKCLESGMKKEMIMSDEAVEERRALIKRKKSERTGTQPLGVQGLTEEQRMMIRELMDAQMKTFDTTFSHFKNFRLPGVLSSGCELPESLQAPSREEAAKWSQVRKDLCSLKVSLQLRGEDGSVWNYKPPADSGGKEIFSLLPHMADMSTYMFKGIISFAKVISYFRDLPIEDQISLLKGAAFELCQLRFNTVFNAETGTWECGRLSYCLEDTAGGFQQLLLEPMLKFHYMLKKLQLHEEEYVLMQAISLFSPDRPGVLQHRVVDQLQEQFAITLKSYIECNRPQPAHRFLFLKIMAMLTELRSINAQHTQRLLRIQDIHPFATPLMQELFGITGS
# Sequence of UniProt P47712 (whole entry, looked up): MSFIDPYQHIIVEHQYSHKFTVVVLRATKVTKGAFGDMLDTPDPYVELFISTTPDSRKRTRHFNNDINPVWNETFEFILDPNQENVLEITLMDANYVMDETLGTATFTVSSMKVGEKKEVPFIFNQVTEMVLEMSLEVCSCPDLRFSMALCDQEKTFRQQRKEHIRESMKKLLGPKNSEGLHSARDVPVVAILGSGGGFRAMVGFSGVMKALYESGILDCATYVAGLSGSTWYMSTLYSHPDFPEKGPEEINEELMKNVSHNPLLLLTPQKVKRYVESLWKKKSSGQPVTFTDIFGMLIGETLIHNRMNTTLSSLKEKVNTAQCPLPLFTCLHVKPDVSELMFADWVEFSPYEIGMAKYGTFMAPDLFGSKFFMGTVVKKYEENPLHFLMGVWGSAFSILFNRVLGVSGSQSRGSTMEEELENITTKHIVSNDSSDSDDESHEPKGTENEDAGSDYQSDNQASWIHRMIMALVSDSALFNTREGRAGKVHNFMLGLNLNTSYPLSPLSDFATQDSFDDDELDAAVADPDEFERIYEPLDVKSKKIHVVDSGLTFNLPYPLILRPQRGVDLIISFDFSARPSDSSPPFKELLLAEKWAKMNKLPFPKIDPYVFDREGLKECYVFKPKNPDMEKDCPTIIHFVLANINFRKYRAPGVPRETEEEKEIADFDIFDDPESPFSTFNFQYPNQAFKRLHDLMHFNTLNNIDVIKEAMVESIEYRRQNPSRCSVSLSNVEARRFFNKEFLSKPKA
SMILES,target,assay,system,conditions,measurement,result
CCCN(CC[C@]1(O)C[C@H](NS(=O)(=O)c2ccccc2OC)C1)[C@H]1CCc2nc(N)sc2C1 (relative stereo),"dopamine D1-like receptor, rat",radioligand binding,rat striatal membranes,with: [3H]SCH23390,Ki,1810 ± 93 nM
COc1ccc(CC2c3cc(OC)c(OC)cc3CCN2CC(=O)Nc2cccc3ccccc23)cc1OC (stereo not drawn),HCRTR1,,,,Kd,732 ± 250 nM
CCNc1cc(CC2c3cc(OC)c(OC)cc3CCN2CC(=O)NCc2ccccc2)ccc1OC (stereo not drawn),HCRTR1,"calcium signal, antagonist, fluorescence",,,Kb,309 nM
COc1ccc(CC2c3cc(OC)c(OC)cc3CCN2CC(=O)N2CCN(c3ccccc3)CC2)cc1OC (stereo not drawn),HCRTR1,,,,Kd,> 10000 nM
COc1cc2c(cc1OC)C(Cc1ccc3ccccc3c1)N(CC(=O)NCc1ccccc1)CC2 (stereo not drawn),HCRTR1,"calcium signal, antagonist, fluorescence",,,Kb,245 nM
CCCN(CCC1(O)CC(NC(=O)c2ccc(F)cc2)C1)[C@H]1CCc2nc(N)sc2C1 (stereo in doubt),"dopamine D1-like receptor, rat",radioligand binding,rat striatal membranes,with: [3H]SCH23390,Ki,50000 ± 4890 nM
CCCC(=O)Nc1cc(CC2c3cc(OC)c(OC)cc3CCN2CC(=O)NCc2ccccc2)ccc1OC (stereo not drawn),HCRTR1,"calcium signal, antagonist, fluorescence",,,Kb,320 nM
CCCCCCOc1ccc(CCCCC(=O)C(=O)NCCCC(=O)O)cc1,"PLA2G4A (Homo sapiens, UniProt P47712)","enzyme activity, mixed micelle",,,XI(50),0.016 mole fraction
CCCN(CCC1(O)CC(NS(=O)(=O)c2ccccc2F)C1)[C@H]1CCc2nc(N)sc2C1 (stereo in doubt),Drd3,"ligand displacement, radioligand",,cell membranes,Ki,1 nM
COc1cc2c(cc1OC)C(Cc1ccc(N)cc1)N(CC(=O)NCc1ccccc1)CC2 (stereo not drawn),HCRTR1,"calcium signal, antagonist, fluorescence",,,Kb,> 10000 nM
Cc1ccc(C(C)C)cc1O,"TRPV3 (Homo sapiens, UniProt Q8NET8)","ion current, activator, whole-cell patch clamp",HEK293 transfected with TRPV3,,EC50,200000 nM
COc1cc(CC2c3cc(OC)c(OC)cc3CCN2CC(=O)NCc2ccccc2)ccc1O (stereo not drawn),HCRTR1,"calcium signal, antagonist, fluorescence",,,Kb,419 nM
O=C(/C=C/C=C/c1ccc2c(c1)OCO2)N1CCCCC1,"NR1I2 (Homo sapiens, UniProt O75469)","MDR1 promoter reporter, activator, luciferase reporter","LS180, PXR-transfected","24 h, 1% charcoal-stripped FBS",EC50,3090 nM
CCCN(CCC1(O)CC(NS(=O)(=O)c2cccc(F)c2)C1)[C@H]1CCc2nc(N)sc2C1 (stereo in doubt),Drd3,"ligand displacement, radioligand",,cell membranes,Ki,1.2 nM
CCCCCCCNC(=O)CN1CCc2cc(OC)c(OC)cc2C1Cc1ccc(OC)c(OC)c1 (stereo not drawn),HCRTR1,,,,Kd,589 ± 230 nM
CCCN(CC[C@]1(O)C[C@@H](NC(=O)c2cccc(F)c2)C1)[C@H]1CCc2nc(N)sc2C1 (relative stereo),Drd3,"ligand displacement, radioligand",,cell membranes,Ki,1.9 nM
COc1cc2c(cc1OC)C(Cc1ccc3oc(C)nc3c1)N(CC(=O)NCc1ccccc1)CC2 (stereo not drawn),HCRTR1,"calcium signal, antagonist, fluorescence",,,Kb,2620 nM
CCCN(CCC1(O)CC(NS(=O)(=O)c2ccc(Cl)cc2)C1)[C@H]1CCc2nc(N)sc2C1 (stereo in doubt),Drd3,"ligand displacement, radioligand",,cell membranes,Ki,2.6 nM
COc1cc2c(cc1OC)C(Cc1ccc(N(C)C)cc1)N(CC(=O)NCc1ccccc1)CC2 (stereo not drawn),HCRTR1,"calcium signal, antagonist, fluorescence",,,Kb,253 nM
CCCN(CC[C@]1(O)C[C@@H](NC(=O)c2cccc(OC)c2)C1)[C@H]1CCc2nc(N)sc2C1 (relative stereo),Drd3,"ligand displacement, radioligand",,cell membranes,Ki,0.76 nM
Nc1nc2c(ncn2[C@@H]2O[C@@H]3COP(=O)(O)O[C@H]3[C@H]2O)c(=O)[nH]1,"Cnga2 (Mus musculus, UniProt Q62398, G204E/M2V)","channel current, agonist, inside-out patch clamp",Xenopus oocytes,holding +100 mV,EC50,1900 nM

# Some of these lines once more:
SMILES,target,assay,system,conditions,measurement,result
COc1cc2c(cc1OC)C(Cc1ccc3ccccc3c1)N(CC(=O)NCc1ccccc1)CC2 (stereo not drawn),HCRTR1,"calcium signal, antagonist, fluorescence",,,Kb,245 nM
CCCN(CCC1(O)CC(NC(=O)c2ccc(F)cc2)C1)[C@H]1CCc2nc(N)sc2C1 (stereo in doubt),"dopamine D1-like receptor, rat",radioligand binding,rat striatal membranes,with: [3H]SCH23390,Ki,50000 ± 4890 nM
